Results collected from several papers.
Each line is one published result; not all experiments were run side by side.
Sequence of UniProt Q16620 (whole entry, looked up): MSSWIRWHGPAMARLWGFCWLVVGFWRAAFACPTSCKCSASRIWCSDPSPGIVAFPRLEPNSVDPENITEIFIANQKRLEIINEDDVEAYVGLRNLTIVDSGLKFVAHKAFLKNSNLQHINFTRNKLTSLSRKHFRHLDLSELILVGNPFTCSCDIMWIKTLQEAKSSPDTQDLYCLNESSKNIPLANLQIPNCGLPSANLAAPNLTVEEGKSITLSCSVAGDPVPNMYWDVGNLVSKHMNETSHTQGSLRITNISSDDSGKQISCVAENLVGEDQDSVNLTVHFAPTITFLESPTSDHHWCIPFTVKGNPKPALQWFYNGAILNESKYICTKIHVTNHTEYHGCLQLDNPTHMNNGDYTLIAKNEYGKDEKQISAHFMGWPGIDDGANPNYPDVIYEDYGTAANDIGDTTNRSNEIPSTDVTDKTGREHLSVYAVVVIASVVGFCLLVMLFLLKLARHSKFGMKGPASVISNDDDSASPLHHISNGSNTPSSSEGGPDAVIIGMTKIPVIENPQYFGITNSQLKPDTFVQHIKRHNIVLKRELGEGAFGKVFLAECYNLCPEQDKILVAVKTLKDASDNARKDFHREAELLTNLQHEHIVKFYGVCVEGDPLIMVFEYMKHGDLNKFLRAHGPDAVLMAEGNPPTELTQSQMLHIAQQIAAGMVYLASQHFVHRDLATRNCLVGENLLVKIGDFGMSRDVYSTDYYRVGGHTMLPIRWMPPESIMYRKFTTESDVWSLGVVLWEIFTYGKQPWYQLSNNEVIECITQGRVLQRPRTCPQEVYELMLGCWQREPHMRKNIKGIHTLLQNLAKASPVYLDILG

CC(C)(N)CNC(=O)O[C@@H]1CCC[C@]2(C1)OOC1(O2)C2CC3CC(C2)CC1C3 (some centres unmarked)
AUC(0-inf) (male CD-1 mouse, plasma; intravenous, 3 mg/kg): 461 ng·h/mL

O=C(Nc1cccnn1)N1CCN([C@@H]2CCOc3cc(C(F)(F)F)ccc32)CC1
half-life (male Sprague-Dawley rat, plasma; oral, 3 mg/kg): 5.4 h

CC[C@H](C)CCCCC(=O)N[C@@H](CCN)C(=O)N[C@H](C(=O)N[C@@H](CCN)C(=O)N[C@H]1CCNC(=O)[C@H]([C@@H](C)O)NC(=O)[C@H](CCN)NC(=O)[C@H](CCN)NC(=O)[C@H](CC(C)C)NC(=O)[C@@H](CC(C)C)NC(=O)[C@H](CCN)NC1=O)[C@@H](C)O
half-life (male Sprague-Dawley rat, plasma; intravenous, 5 mg/kg): 2.85 h

N=C(N)NCCC[C@@H](NC(=O)[C@@H](N)Cc1ccccc1)C(=O)N[C@@H](Cc1ccccc1)C(=O)N[C@@H](CCCCN)C(N)=O
AUC(0-t) (human, plasma; subcutaneous, 15 mg, patients): 3370 ng·h/mL

CC(C)CC(=O)OC[C@H]1O[C@@](C#N)(c2ccc3c(N)ncnn23)[C@H](O)[C@@H]1O
MTD (general toxicity; beagle dog; oral, single dose): ≥ 2000 mg/kg

CCNC(=O)c1ccc(-n2nc(C)cc2-c2ccccc2)cc1
IC50 (Dihydroorotate dehydrogenase (quinone), mitochondrial (PFF0160c, Plasmodium falciparum, UniProt Q08210, E182D); enzyme activity, inhibitor, absorbance): 1.81 µM

[18FH]
tracer uptake (mouse, kidney; intravenous, 1 h): 0.38 %ID/g

CC(C)C[C@H](NC(=O)[C@H](Cc1ccccc1)NC(=O)[C@H](Cc1ccccc1)NC(=O)Cc1ccc(-c2ccccc2)cc1)C(=O)N[C@@H](CCCCN)C(=O)N[C@@H](CCCNC(=N)N)C(=O)N[C@H](C(=O)N[C@@H](Cc1c[nH]c2ccccc12)C(=O)N[C@@H](CCCCN)C(=O)N[C@@H](CCCNC(=N)N)C(=O)O)C(C)C
compound remaining (metabolic stability; dog, liver microsomes; 5 min): 94.1%

CCCNC(=O)c1ccnc(-c2ccc(CNC3Cc4ccccc4C3)cc2)c1
IC50 (Dihydroorotate dehydrogenase (quinone), mitochondrial (PFF0160c, Plasmodium falciparum, UniProt Q08210); enzyme activity, inhibitor, absorbance): 3.39 µM

Nc1nc(-c2ccccc2)nc2[nH]nc(Nc3ccc(C(F)(F)F)cc3)c12
concentration (mouse, plasma; oral, 100 mg/kg, 4 h): 1110 ng/mL

[2H]c1c([2H])c([C@]2([2H])CCCN2C(=O)C(C)(C)Oc2ccc3cn[nH]c3c2)c([2H])c([2H])c1C([2H])([2H])[2H]
remaining binding (BDNF/NT-3 growth factors receptor (NTRK2, Homo sapiens, UniProt Q16620); binding, competition with immobilised ligand; 1 µM): 85%
